Results of several laboratories.
Protocols differ between the studies behind these lines. ± gives the spread as reported. Converted amounts (≈) assume the structure as drawn.

| Structure (SMILES) | target or system | test | test system | setting | how to read | endpoint | value |
| --- | --- | --- | --- | --- | --- | --- | --- |
| C=CCc1ccc(OCC(=C)C)c(OC)c1 | Spodoptera frugiperda | – | larvae | 25 µg/mL | baseline: untreated control | antifeedant index | 11% |
| CC[C@H](C)[C@H](NC(=O)[C@H](CO)NC(=O)[C@H](CO)NC(=O)[C@H](Cc1ccccc1)NC(=O)CN)C(=O)N[C@@H](Cc1ccccc1)C(=O)N[C@@H](CCCNC(=N)N)C(=O)NCC(=O)N[C@H](C(=O)N[C@@H](C)C(=O)N[C@@H](CCCCN)C(N)=O)C(C)C | Escherichia coli | – | ATCC 8739 | 20% FBS | – | MBC | > 128 µM |
| NC(CNC(CNC(CC(=O)O)C(=O)O)C(=O)O)C(=O)O (stereo not shown) | carbapenem-resistant Enterobacteriaceae | – | clinical isolates | concentration not given, with: meropenem | – | FIC index | < 0.1 |
| C/C=C/c1ccc(OCc2ccccc2)c(OC)c1 | Spodoptera frugiperda | – | larvae | 500 µg/mL | baseline: untreated control | antifeedant index | 25.7% |
| N=C(N)NCCC[C@@H]1NC(=O)[C@H](CCCCNC(=O)CNC(=O)CNC(=O)CNC(=O)CC[C@H](NC(=O)CCOCCOCCOCCOCCNC(=O)CC[C@H](NC(=O)CN2CCN(CC(=O)O)CCN(CC(=O)O)CCN(CC(=O)O)CC2)C(=O)NCCOCCOCCOCCOCCC(=O)N[C@@H](CCC(=O)NCC(=O)NCC(=O)NCC(=O)NCCCC[C@@H]2NC(=O)[C@@H](Cc3ccccc3)NC(=O)[C@H](CC(=O)O)NC(=O)CNC(=O)[C@H](CCCNC(=N)N)NC2=O)C(=O)NCC(=O)NCC(=O)NCC(=O)NCCCC[C@@H]2NC(=O)[C@@H](Cc3ccccc3)NC(=O)[C@H](CC(=O)O)NC(=O)CNC(=O)[C@H](CCCNC(=N)N)NC2=O)C(=O)NCC(=O)NCC(=O)NCC(=O)NCCCC[C@@H]2NC(=O)[C@@H](Cc3ccccc3)NC(=O)[C@H](CC(=O)O)NC(=O)CNC(=O)[C@H](CCCNC(=N)N)NC2=O)NC(=O)[C@@H](Cc2ccccc2)NC(=O)[C@H](CC(=O)O)NC(=O)CNC1=O [indium-111 labelled] | – | – | female athymic nude mice, kidney | intravenous, 3 µCi, 4 h, U-87 MG glioma xenograft | – | tissue uptake | 4.4 ± 0.63 %ID/g |
| CC[C@H](C)[C@H](NC(=O)[C@H](CCCCN)NC(=O)[C@H](CCCCN)NC(=O)[C@H](CC(C)C)NC(=O)[C@H](CCCCN)NC(=O)[C@H](CCC(=O)O)NC(=O)[C@H](CCCCN)NC(=O)[C@@H](NC(=O)[C@H](CCCCN)NC(=O)[C@H](CC(N)=O)NC(=O)[C@H](CCCNC(=N)N)NC(=O)[C@H](Cc1ccccc1)NC(=O)[C@H](CCCCN)NC(=O)[C@H](CCCNC(=N)N)NC(=O)[C@H](CC(C)C)NC(=O)[C@H](CCCNC(=N)N)NC(=O)[C@H](CCCCN)NC(=O)[C@H](CCCNC(=N)N)NC(=O)[C@H](CC(C)C)NC(=O)[C@@H](N)CCCNC(=N)N)[C@@H](C)CC)C(=O)NCC(=O)N[C@@H](CCC(N)=O)C(=O)N[C@@H](CCCCN)C(=O)N[C@H](C(=O)N[C@@H](CCC(N)=O)C(=O)NCC(=O)N[C@@H](Cc1ccccc1)C(=O)N[C@H](C(=O)N1CCC[C@H]1C(=O)N[C@@H](CCCCN)C(=O)N[C@@H](CC(C)C)C(=O)N[C@@H](CCC(N)=O)C(=O)N1CCC[C@H]1C(=O)N[C@@H](CO)C(=O)N[C@@H](CCCCN)C(=O)N[C@@H](CCC(N)=O)C(=O)N[C@@H](CO)C(=O)O)C(C)C)[C@@H](C)CC | Staphylococcus | inhibition zone | methicillin-resistant coagulase-negative P1369 | – | – | lethal concentration | 2.09 µM |
| CC(C)C[C@@H]1NC(=O)[C@H](CCCCN)NC(=O)[C@H](C(C)C)NC(=O)[C@@H]2CCCN2C(=O)[C@@H](Cc2ccc(O)cc2)NC(=O)[C@H](CC(C)C)NC(=O)[C@H](CCCCN)NC(=O)[C@H](C(C)C)NC(=O)[C@@H]2CCCN2C(=O)[C@@H](Cc2ccc(O)cc2)NC(=O)[C@H](CCCCN)NC1=O | Gram-negative bacteria | – | – | 24 h, 7 strains | – | MIC geometric mean | 86.1 µg/mL (≈ 64.8 µM) |
| COc1ccccc1-c1n[nH]c2nc(N[C@H]3CC[C@H](NS(=O)(=O)CC(C)C)CC3)ncc12 | Leishmania donovani | – | promastigotes, LdBOB start clone | – | baseline: wild type | EC50 fold change | 1 |
| CC[C@@H](C)[C@@H](NC(=O)[C@@H](C)NC(=O)[C@@H](CCCCN)NC(=O)[C@@H](CC(C)C)NC(=O)[C@@H](C)NC(=O)[C@H](NC(=O)[C@@H](Cc1c[nH]cn1)NC(=O)[C@@H](CC(C)C)NC(=O)[C@H](NC(=O)[C@H](NC(=O)[C@@H](CCCCN)NC(=O)[C@@H](CCCCN)NC(=O)[C@@H](C)NC(=O)[C@@H](CO)NC(=O)[C@@H](CCCCN)NC(=O)[C@@H](Cc1ccccc1)NC(=O)[C@H](NC(=O)[C@@H](CCCCN)NC(=O)[C@@H](CC(C)C)NC(=O)[C@@H](Cc1ccccc1)NC(=O)[C@@H](CO)NC(=O)[C@@H](CCCCN)NC(=O)[C@@H](Cc1c[nH]c2ccccc12)NC(=O)[C@@H](CCCCN)NC(C)=O)[C@H](C)O)[C@H](C)O)C(C)C)[C@H](C)O)C(=O)N[C@H](CO)C(=O)N[C@H](CO)C(N)=O | Acinetobacter baumannii | – | 11 isolates | – | baseline: HC50 over geometric mean MIC | therapeutic index | 128 |
| C=CCc1ccc(OCc2ccccc2)c(OC)c1 | Spodoptera frugiperda | – | larvae | 100 µg/mL | baseline: untreated control | antifeedant index | 37.3% |
| CC[C@H](C)[C@H](NC(=O)[C@H](CCCCN)NC(=O)[C@H](CCCCN)NC(=O)[C@H](Cc1ccccc1)NC(=O)[C@H](Cc1ccccc1)NC(=O)[C@H](CCCCN)NC(=O)[C@H](CCCCN)NC(=O)[C@H](Cc1ccccc1)NC(=O)[C@H](CCCNC(=N)N)NC(=O)[C@@H](N)CCCCN)C(=O)N[C@@H](CCCCN)C(=O)N[C@@H](CCCCN)C(=O)N[C@@H](CO)C(=O)N[C@H](C(=O)N[C@@H](CCCCN)C(=O)N[C@@H](CCCCN)C(=O)N[C@@H](CCCNC(=N)N)C(=O)N[C@H](C(=O)N[C@@H](CCCCN)C(=O)N[C@@H](CCCCN)C(=O)N[C@@H](CC(C)C)C(=O)N[C@@H](Cc1ccccc1)C(=O)N[C@@H](CCCCN)C(=O)N[C@@H](CCCCN)C(=O)N1CCC[C@H]1C(=O)N[C@@H](CCCNC(=N)N)C(=O)N[C@H](C(=O)N[C@H](C(=O)N1CCC[C@H]1C(=O)N[C@H](C(=O)N[C@@H](CO)C(=O)N[C@H](C(=O)N1CCC[C@H]1C(=O)N[C@@H](Cc1ccccc1)C(=O)O)[C@@H](C)CC)[C@@H](C)CC)[C@@H](C)CC)C(C)C)C(C)C)C(C)C | Escherichia coli | bacterial ATP level | E24, Mueller-Hinton broth | 1 µg/mL, 1/4 × MIC | – | inhibition | 50% |
| CCCC[C@H](NC(=O)CNC(=O)CNC(=O)c1ccc(NN)nc1)C(=O)N[C@H]1CC(=O)NCCCC[C@@H](C(N)=O)NC(=O)[C@H](Cc2c[nH]c3ccccc23)NC(=O)[C@H](CCCNC(=N)N)NC(=O)[C@@H](Cc2ccccc2)NC(=O)[C@H](Cc2c[nH]cn2)NC1=O [technetium-99m labelled] | – | – | C57 mouse, B16/F1 melanoma-bearing | intravenous, 4 h | baseline: tumour over kidney | tissue uptake ratio | 2.5 |
| CCn1c2ccccc2c2cc(/C=N/NC(=O)Cn3ccc(=O)c4ccccc43)ccc21 | Botrytis cinerea | microbial growth | – | 50 µg/mL | – | inhibition | 20.8% |
| CC[C@H](C)[C@H](NC(=O)[C@H](CCCCN)NC(=O)[C@H](CCCCN)NC(=O)[C@H](CC(C)C)NC(=O)[C@H](CCCCN)NC(=O)[C@H](CCC(=O)O)NC(=O)[C@H](CCCCN)NC(=O)[C@@H](NC(=O)[C@H](CCCCN)NC(=O)[C@H](CC(N)=O)NC(=O)[C@H](CCCNC(=N)N)NC(=O)[C@H](Cc1ccccc1)NC(=O)[C@H](CCCCN)NC(=O)[C@H](CCCNC(=N)N)NC(=O)[C@H](CC(C)C)NC(=O)[C@H](CCCNC(=N)N)NC(=O)[C@H](CCCCN)NC(=O)[C@H](CCCNC(=N)N)NC(=O)[C@H](CC(C)C)NC(=O)[C@@H](N)CC(C)C)[C@@H](C)CC)C(=O)NCC(=O)N[C@@H](CCC(N)=O)C(=O)N[C@@H](CCCCN)C(=O)N[C@H](C(=O)N[C@@H](CCC(N)=O)C(=O)NCC(=O)N[C@@H](Cc1ccccc1)C(=O)N[C@H](C(=O)N1CCC[C@H]1C(=O)N[C@@H](CCCCN)C(=O)N[C@@H](CC(C)C)C(=O)N[C@H](C(=O)N1CCC[C@H]1C(=O)N[C@@H](CCCNC(=N)N)C(=O)N[C@H](C(=O)N[C@@H](CCC(=O)O)C(=O)N[C@@H](CO)C(=O)O)[C@@H](C)O)C(C)C)C(C)C)[C@@H](C)CC | Streptococcus sanguinis | inhibition zone | ATCC 1.2497 | LB agar, overnight | – | lethal concentration | 2.81 µM |
| CC(=O)C1=C(O)C=C2Oc3c(C(C)=O)c(O)c(C)c(O)c3[C@]2(C)C1=O | Candida tropicalis | broth microdilution | ATCC 750 fluconazole and amphotericin B resistant | 24 and 48 h | – | MIC99 | 4.54 µM (≈ 1.56 µg/mL) |
| CN[C@](C)(C[18F])C(=O)O | DU-145 tumour model | – | host not given, pancreas | 1 h, tumour-bearing | – | tracer uptake | 22 %ID/g |
| C[C@H]1[C@H](C)CC[C@]2(CO)CC[C@]3(C)C(=CC[C@@H]4[C@@]5(C)CCCNC(C)(C)[C@@H]5CC[C@]43C)[C@H]12 | Human cytomegalovirus | – | HFF, AD169 | – | baseline: CC50 over EC50 | selectivity index | 136 |
| C=CCc1ccc(OCC=C(C)C)c(OC)c1 | Spodoptera frugiperda | – | larvae | 50 µg/mL | baseline: untreated control | antifeedant index | 24.9% |
| Cc1nc2c(cnn2C(C)C)cc1C(=O)NCc1ccc(C(C)O)c(C)n1 (stereo not shown) | Drosophila melanogaster | – | APP transgenic (Alzheimer model) | in food, 100 µM, 72 h, from adult day 3 | – | median survival | 37 days |
| Nc1nc(-c2ccccc2)nc2[nH]nc(Nc3ccc(F)cc3)c12 | coxsackievirus B3 | plaque formation, plaque reduction | HeLa, Nancy, resistant mutant I1207M | – | – | IC50 | 31.5 ± 7.89 µM |
| N=C(N)NCCC[C@@H]1NC(=O)[C@H](CCCCNC(=O)CC[C@H](NC(=O)CCOCCOCCOCCOCCNC(=O)CC[C@H](NC(=O)CN2CCN(CC(=O)O)CCN(CC(=O)O)CCN(CC(=O)O)CC2)C(=O)NCCOCCOCCOCCOCCC(=O)N[C@@H](CCC(=O)NCCCC[C@@H]2NC(=O)[C@@H](Cc3ccccc3)NC(=O)[C@H](CC(=O)O)NC(=O)CNC(=O)[C@H](CCCNC(=N)N)NC2=O)C(=O)NCCCC[C@@H]2NC(=O)[C@@H](Cc3ccccc3)NC(=O)[C@H](CC(=O)O)NC(=O)CNC(=O)[C@H](CCCNC(=N)N)NC2=O)C(=O)NCCCC[C@@H]2NC(=O)[C@@H](Cc3ccccc3)NC(=O)[C@H](CC(=O)O)NC(=O)CNC(=O)[C@H](CCCNC(=N)N)NC2=O)NC(=O)[C@@H](Cc2ccccc2)NC(=O)[C@H](CC(=O)O)NC(=O)CNC1=O [indium-111 labelled] | – | – | female athymic nude mouse | intravenous, 3 µCi, 72 h, U-87 MG glioma xenograft | baseline: tumour over muscle | tumour to muscle ratio | 25.9 ± 15.6 |
| C/C=C/c1ccc(OC(C)=O)c(OC)c1 | Spodoptera frugiperda | – | larvae | 100 µg/mL | baseline: untreated control | antifeedant index | 42.7% |
| CCCCCCCCC(=O)NCc1ccc(O)c(OC)c1 | mAb 5-D8 | antibody binding, indirect competitive ELISA | – | with: coating antigen hapten 3-OVA | – | IC50 | 0.1 µg/mL |
| CCN(Cc1ccccc1)C(=O)CCc1nc(CN2CCN(C(=O)Cc3ccc(OC)c(OC)c3)CC2)no1 | KCNQ5 (Homo sapiens, UniProt Q9NR82) | potassium current, whole-cell patch clamp | transfected cells | 1 µM | – | activation V1/2 | -58.3 ± 1.72 mV |
| CC(C)C[C@H](NC(=O)[C@H](Cc1c[nH]c2ccccc12)NC(=O)[C@@H]1CCCN1C(=O)[C@@H](NC(=O)[C@H](CCCNC(=N)N)NC(=O)[C@@H]1CCCN1C(=O)[C@H](CCC(N)=O)NC(=O)[C@@H]1CCCN1C(=O)[C@H](CCCNC(=N)N)NC(=O)[C@@H]1CCCN1C(=O)[C@H](Cc1ccccc1)NC(=O)[C@H](Cc1ccccc1)NC(=O)[C@H](CCC(N)=O)NC(=O)[C@H](CCCNC(=N)N)NC(=O)[C@@H]1CCCN1C(=O)[C@H](CC(C)C)NC(=O)[C@H](CCCNC(=N)N)NC(=O)[C@H](CCCNC(=N)N)NC(=O)[C@H](CC(C)C)NC(=O)[C@@H](NC(=O)[C@H](CCCNC(=N)N)NC(=O)[C@H](CCC(N)=O)NC(=O)[C@@H](N)Cc1ccc(O)cc1)C(C)C)[C@@H](C)O)C(=O)O | Gram-negative bacteria | MIC | – | concentration not given | – | antibacterial activity | active |

For quick reference, copied from above:
| Structure (SMILES) | target or system | test | test system | setting | how to read | endpoint | value |
| --- | --- | --- | --- | --- | --- | --- | --- |
| CCCC[C@H](NC(=O)CNC(=O)CNC(=O)c1ccc(NN)nc1)C(=O)N[C@H]1CC(=O)NCCCC[C@@H](C(N)=O)NC(=O)[C@H](Cc2c[nH]c3ccccc23)NC(=O)[C@H](CCCNC(=N)N)NC(=O)[C@@H](Cc2ccccc2)NC(=O)[C@H](Cc2c[nH]cn2)NC1=O [technetium-99m labelled] | – | – | C57 mouse, B16/F1 melanoma-bearing | intravenous, 4 h | baseline: tumour over kidney | tissue uptake ratio | 2.5 |
| CCn1c2ccccc2c2cc(/C=N/NC(=O)Cn3ccc(=O)c4ccccc43)ccc21 | Botrytis cinerea | microbial growth | – | 50 µg/mL | – | inhibition | 20.8% |
